Published values of several laboratories.
Compare with care: the assays were run in different laboratories. ± marks the error that the study gave.
FYN SH3 domain: Tyrosine-protein kinase Fyn, SH3 domain (FYN, Homo sapiens, UniProt P06241)
Chain of UniProt P06241 (whole entry, looked up): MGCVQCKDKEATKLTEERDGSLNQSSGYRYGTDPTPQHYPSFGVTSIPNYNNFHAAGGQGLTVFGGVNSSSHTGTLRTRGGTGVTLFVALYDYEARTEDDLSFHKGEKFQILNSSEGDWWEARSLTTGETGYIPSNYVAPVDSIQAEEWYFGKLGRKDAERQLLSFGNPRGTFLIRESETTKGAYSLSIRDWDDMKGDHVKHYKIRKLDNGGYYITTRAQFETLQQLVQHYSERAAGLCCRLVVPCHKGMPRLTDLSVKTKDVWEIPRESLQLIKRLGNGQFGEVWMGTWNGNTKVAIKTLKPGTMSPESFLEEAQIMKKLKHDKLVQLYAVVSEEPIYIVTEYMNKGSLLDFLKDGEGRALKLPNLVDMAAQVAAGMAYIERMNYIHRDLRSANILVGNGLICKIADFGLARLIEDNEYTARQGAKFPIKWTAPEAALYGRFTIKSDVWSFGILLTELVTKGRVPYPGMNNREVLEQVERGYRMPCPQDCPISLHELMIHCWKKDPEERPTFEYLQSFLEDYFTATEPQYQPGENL
FYN: Tyrosine-protein kinase Fyn (FYN, Homo sapiens, UniProt P06241)

SMILES = CC(=O)N[C@H](C(=O)N[C@@H](CC(N)=O)C(=O)N[C@@H](CCCCN)C(=O)N1CCC[C@H]1C(=O)N[C@@H](CC(C)C)C(=O)N1CCC[C@H]1C(=O)N1CCC[C@H]1C(=O)N[C@@H](CC(C)C)C(=O)N1CCC[C@H]1C(=O)N[C@H](C(=O)N[C@@H](C)C(N)=O)C(C)C)C(C)C; target = FYN SH3 domain; assay = ligand binding, FTIR spectroscopy, measured: asymmetric stretch band A; conditions = pH 7.0, FYN complex, together with: 4 mM peptide; measurement = wavenumber; result = 2226.7 ± 0.4 cm⁻¹
SMILES = COc1cc(F)ccc1-c1ncnc(Nc2cccc(C[S@](C)(=N)=O)c2)n1; target = FYN; assay = kinase activity; conditions = 10 µM, together with: 10 µM ATP; measurement = remaining activity; result = 24%
SMILES = [2H]c1cc(C)c(NC(=O)c2cnc(Nc3cc(N4CCCCC4)nc(C)n3)s2)c(Cl)c1; target = FYN; conditions = 0.0001 µM; measurement = inhibition; result = > 50%
SMILES = CC(=O)N[C@H](C(=O)N[C@@H](CC(N)=O)C(=O)N[C@@H](CCCCN)C(=O)N[C@@H](C)C(=O)N[C@@H](CC(C)C)C(=O)N1CCC[C@H]1C(=O)N[C@@H](C)C(=O)N[C@@H](CC(C)C)C(=O)N1CCC[C@H]1C(=O)N[C@H](C(=O)N[C@@H](C)C(N)=O)C(C)C)C(C)C; target = FYN SH3 domain; assay = binding, isothermal titration calorimetry; system = 50 mM sodium phosphate, 100 mM NaCl; conditions = pH 7.0, 25 °C; measurement = -TΔS; result = 4.37 ± 0.454 kcal/mol
SMILES = C=CC(=O)N1CCC([C@@H]2CCNc3c(C(N)=O)c(-c4ccc(Oc5ccccc5)cc4)nn32)CC1; target = FYN; assay = kinase activity, inhibitor, HotSpot radiometric; conditions = 100 nM, together with: ATP 10 µM; measurement = remaining activity; result = 76.3 ± 3.2%
SMILES = [2H]c1cc(C)c(NC(=O)c2cnc(Nc3cc(N4CCC(O)CC4)nc(C)n3)s2)c(Cl)c1; target = FYN; conditions = 0.001 µM; measurement = inhibition; result = > 50%
SMILES = C=CC(=O)N1CCCN(C(=O)c2cc(Sc3cnc(NC(=O)C4CC4)s3)c(C)cc2OC)C[C@H]1C; target = FYN; assay = kinase activity, inhibitor; conditions = concentration not given; how to read = reference: control; measurement = remaining activity; result = 99%
SMILES = COc1ccc(F)cc1C(=O)NCc1ccc(-c2nn([C@@H](C)C(F)(F)F)c(N)c2C(N)=O)cc1; target = FYN; assay = kinase activity, inhibitor, HotSpot radiometric; conditions = 1000 nM, together with: ATP at Km; measurement = remaining activity; result = 48.8 ± 1.8%
SMILES = CNc1ncc2c(/C=C/C(=O)N3CCC(OC)CC3)nn(Cc3cccc(C(F)(F)F)c3)c2n1; target = FYN; assay = kinase activity, inhibitor; conditions = 1 µM; how to read = reference: untreated control; measurement = remaining activity; result = 91%

A few entries again:
SMILES = COc1ccc(F)cc1C(=O)NCc1ccc(-c2nn([C@@H](C)C(F)(F)F)c(N)c2C(N)=O)cc1; target = FYN; assay = kinase activity, inhibitor, HotSpot radiometric; conditions = 1000 nM, together with: ATP at Km; measurement = remaining activity; result = 48.8 ± 1.8%
